Published values gathered from unrelated publications.
Every numbered part comes from another study and shows a few of its results, in no order.
UniProt O00238, sequence (whole entry, looked up): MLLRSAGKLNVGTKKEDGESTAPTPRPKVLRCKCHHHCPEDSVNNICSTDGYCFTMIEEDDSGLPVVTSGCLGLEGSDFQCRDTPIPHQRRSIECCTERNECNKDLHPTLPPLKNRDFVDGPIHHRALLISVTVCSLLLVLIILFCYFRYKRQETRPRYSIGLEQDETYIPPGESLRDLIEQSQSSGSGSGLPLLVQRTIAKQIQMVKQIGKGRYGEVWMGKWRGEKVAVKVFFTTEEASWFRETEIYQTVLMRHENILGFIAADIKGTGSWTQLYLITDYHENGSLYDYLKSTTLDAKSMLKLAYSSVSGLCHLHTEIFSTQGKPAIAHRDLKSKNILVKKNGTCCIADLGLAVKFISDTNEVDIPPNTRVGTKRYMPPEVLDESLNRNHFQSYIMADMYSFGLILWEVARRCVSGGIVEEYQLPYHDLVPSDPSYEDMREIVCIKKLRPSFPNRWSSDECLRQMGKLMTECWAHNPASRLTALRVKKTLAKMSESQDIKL
UniProt P29597, sequence (whole entry, looked up): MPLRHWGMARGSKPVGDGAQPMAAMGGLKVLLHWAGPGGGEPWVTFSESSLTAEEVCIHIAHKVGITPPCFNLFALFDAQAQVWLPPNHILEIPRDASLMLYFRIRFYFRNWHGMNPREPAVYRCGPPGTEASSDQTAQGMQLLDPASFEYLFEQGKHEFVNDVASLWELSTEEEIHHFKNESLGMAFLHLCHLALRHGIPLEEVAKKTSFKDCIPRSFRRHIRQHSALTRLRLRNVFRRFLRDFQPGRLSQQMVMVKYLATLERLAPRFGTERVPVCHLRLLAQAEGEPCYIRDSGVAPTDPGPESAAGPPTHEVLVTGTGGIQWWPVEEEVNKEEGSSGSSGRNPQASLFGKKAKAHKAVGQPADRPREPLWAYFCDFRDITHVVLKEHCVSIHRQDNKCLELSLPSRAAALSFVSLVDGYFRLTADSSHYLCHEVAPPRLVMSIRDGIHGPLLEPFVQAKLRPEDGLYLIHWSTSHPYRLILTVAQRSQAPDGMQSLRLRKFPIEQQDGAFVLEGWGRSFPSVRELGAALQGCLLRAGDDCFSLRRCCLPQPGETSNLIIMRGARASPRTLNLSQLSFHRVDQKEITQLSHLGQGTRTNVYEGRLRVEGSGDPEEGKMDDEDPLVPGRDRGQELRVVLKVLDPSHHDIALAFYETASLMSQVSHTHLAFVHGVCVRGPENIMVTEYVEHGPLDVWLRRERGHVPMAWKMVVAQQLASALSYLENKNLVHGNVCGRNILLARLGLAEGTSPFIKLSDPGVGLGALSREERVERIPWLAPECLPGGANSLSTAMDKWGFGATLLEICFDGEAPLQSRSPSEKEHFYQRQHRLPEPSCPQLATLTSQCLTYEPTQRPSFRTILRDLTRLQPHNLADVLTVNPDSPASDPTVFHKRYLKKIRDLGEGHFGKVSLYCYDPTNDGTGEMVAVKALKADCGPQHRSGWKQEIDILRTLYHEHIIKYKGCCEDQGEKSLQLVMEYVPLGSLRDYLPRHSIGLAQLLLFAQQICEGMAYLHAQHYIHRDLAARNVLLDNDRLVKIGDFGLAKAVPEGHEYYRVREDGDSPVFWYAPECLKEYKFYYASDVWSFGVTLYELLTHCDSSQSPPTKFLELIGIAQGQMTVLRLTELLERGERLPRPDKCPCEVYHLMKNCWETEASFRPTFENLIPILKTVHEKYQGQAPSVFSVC
UniProt Q86YV6, sequence (whole entry, looked up): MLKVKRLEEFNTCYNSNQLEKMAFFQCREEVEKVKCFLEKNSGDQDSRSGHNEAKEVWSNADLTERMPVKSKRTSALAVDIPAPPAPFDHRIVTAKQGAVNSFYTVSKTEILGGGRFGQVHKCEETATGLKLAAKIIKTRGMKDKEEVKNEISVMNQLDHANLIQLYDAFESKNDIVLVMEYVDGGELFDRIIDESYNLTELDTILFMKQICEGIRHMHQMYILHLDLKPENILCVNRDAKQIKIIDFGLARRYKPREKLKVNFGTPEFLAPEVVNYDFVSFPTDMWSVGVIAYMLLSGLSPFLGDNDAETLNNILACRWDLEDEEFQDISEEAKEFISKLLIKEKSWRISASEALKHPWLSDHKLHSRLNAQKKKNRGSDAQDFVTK

Series 1
Target: Beta-1 adrenergic receptor (ADRB1, Homo sapiens, UniProt P08588)
UniProt P08588, sequence (whole entry, looked up): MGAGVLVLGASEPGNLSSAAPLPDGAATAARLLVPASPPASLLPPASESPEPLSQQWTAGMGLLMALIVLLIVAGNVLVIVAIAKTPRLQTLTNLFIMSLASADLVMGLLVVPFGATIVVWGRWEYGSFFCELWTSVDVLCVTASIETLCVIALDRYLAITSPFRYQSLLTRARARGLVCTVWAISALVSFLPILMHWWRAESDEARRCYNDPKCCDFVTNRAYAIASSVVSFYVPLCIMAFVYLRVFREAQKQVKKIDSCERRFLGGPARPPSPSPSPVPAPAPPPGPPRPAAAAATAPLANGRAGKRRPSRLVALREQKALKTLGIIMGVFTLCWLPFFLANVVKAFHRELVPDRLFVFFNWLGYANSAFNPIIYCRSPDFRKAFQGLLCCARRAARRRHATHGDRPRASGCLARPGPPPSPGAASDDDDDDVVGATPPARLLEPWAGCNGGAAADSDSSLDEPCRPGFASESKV
Action: agonist
| SMILES | EC50 |
| --- | --- |
| O=C(COc1ccccc1)Nc1ccc([C@@H](O)[C@H]2COCC(=O)N2Cc2ccc(C(F)(F)F)cc2)cc1 | ≥ 100 µM |
| COc1ccccc1N1CCN([S+](=O)([O-])c2ccc(C)cc2OC)CC1 | ≥ 100 µM |
| O=C1NCc2ccccc2CC12CCN(Cc1ccc3ccccc3n1)CC2 | ≥ 100 µM |
| CC(CNc1cc(-c2ccccc2)c2ccccc2n1)N1CCOCC1 (stereo not drawn) | ≥ 100 µM |
| COc1ccccc1N1CCN([S+](=O)([O-])N2CCC(C)C2)CC1 (stereo not drawn) | ≥ 100 µM |
| Cc1cc(-c2nccc3c(=O)cc(N(C)C)oc23)ccn1 | ≥ 100 µM |
| CN(C)c1cccc(-c2nccc3c(=O)cc(N4CCOCC4)oc23)c1 | ≥ 100 µM |
| N#Cc1ccccc1CN1CCNc2nc(CNCc3ccccc3)n(Cc3ccccc3)c2C1=O | ≥ 100 µM |
| O=C(NCCc1ccc(O)c(O)c1)C12CC3CC(CC(C3)C1)C2 | ≥ 100 µM |
| Cc1cc(-c2cc3ccccc3o2)nc2ccccc12 | ≥ 100 µM |
| O=C1c2cnc(-c3ccsc3)nc2OCCN1c1ccccc1 | ≥ 100 µM |
| Cn1ccc(Nc2nccc3c(=O)cc(-c4cn[nH]c4)oc23)n1 | ≥ 100 µM |
| COc1ccc(CN(C)Cc2nc(C)no2)c(OCC(O)CN2CCCC2)c1 (stereo not drawn) | ≥ 100 µM |
| COc1ccc(OCC(O)CN2CCC(O)CC2)c(CN(C)Cc2csc(C)n2)c1 (stereo not drawn) | ≥ 100 µM |
| COCCCNc1ncccc1-c1cc(-c2ccccc2)nc2c(C)noc12 | ≥ 100 µM |
| Cc1ccccc1-c1n[nH]c2ncc(-c3ccccc3C#N)nc12 | ≥ 100 µM |
| COc1ccccc1N1CCN(C(=O)c2ccc3ccccc3n2)CC1 | ≥ 100 µM |
| O=C(c1cc(-c2cccnc2)nc2ccccc12)N1CCCC2(CCOC2)C1 (stereo not drawn) | ≥ 100 µM |

Series 2
SMILES: O=C1CCC(N2Cc3cc(C4CCN(Cc5ccccc5)CC4)ccc3C2=O)C(=O)N1 (stereo not drawn)
Target: CRBN/Zinc finger protein Helios (Homo sapiens, UniProt Q96SW2+Q9UKS7)
UniProt Q96SW2, sequence (whole entry, looked up): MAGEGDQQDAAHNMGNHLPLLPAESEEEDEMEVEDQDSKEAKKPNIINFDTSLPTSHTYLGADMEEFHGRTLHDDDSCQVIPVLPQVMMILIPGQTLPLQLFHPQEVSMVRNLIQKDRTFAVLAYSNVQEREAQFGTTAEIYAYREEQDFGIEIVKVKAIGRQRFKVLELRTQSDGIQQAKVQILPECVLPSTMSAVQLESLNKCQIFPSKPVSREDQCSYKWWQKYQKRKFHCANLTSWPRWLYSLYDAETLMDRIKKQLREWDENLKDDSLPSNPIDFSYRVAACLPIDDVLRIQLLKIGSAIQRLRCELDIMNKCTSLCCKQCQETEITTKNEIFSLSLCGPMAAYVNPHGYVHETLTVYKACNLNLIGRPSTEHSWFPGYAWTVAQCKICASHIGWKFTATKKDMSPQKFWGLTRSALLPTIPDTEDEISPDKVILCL
UniProt Q9UKS7, sequence (whole entry, looked up): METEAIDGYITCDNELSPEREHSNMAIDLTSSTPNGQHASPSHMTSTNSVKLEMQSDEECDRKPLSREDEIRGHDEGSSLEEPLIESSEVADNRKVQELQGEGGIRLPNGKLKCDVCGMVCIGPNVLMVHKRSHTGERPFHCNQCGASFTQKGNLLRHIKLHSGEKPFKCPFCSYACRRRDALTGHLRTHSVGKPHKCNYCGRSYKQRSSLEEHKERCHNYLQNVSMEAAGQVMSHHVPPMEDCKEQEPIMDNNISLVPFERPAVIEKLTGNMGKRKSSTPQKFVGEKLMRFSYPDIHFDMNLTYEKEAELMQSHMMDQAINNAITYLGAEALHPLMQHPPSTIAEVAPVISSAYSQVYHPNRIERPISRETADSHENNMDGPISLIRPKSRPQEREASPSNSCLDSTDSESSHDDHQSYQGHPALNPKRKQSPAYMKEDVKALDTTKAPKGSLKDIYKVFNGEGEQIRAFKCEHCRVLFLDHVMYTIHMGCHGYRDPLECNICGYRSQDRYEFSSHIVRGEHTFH
Action: degrader
Technique: HiBiT kinetics
Cells: HEK293
| conditions | protein remaining [%] |
| --- | --- |
| 0.1524 nM, 6 h | 88 |
| 333.3 nM, 1 h | 73.1 |
| 12.35 nM, 3 h | 39.8 |

Series 3
Target: Insulin receptor-related protein (INSRR, Homo sapiens, UniProt P14616)
UniProt P14616, sequence (whole entry, looked up): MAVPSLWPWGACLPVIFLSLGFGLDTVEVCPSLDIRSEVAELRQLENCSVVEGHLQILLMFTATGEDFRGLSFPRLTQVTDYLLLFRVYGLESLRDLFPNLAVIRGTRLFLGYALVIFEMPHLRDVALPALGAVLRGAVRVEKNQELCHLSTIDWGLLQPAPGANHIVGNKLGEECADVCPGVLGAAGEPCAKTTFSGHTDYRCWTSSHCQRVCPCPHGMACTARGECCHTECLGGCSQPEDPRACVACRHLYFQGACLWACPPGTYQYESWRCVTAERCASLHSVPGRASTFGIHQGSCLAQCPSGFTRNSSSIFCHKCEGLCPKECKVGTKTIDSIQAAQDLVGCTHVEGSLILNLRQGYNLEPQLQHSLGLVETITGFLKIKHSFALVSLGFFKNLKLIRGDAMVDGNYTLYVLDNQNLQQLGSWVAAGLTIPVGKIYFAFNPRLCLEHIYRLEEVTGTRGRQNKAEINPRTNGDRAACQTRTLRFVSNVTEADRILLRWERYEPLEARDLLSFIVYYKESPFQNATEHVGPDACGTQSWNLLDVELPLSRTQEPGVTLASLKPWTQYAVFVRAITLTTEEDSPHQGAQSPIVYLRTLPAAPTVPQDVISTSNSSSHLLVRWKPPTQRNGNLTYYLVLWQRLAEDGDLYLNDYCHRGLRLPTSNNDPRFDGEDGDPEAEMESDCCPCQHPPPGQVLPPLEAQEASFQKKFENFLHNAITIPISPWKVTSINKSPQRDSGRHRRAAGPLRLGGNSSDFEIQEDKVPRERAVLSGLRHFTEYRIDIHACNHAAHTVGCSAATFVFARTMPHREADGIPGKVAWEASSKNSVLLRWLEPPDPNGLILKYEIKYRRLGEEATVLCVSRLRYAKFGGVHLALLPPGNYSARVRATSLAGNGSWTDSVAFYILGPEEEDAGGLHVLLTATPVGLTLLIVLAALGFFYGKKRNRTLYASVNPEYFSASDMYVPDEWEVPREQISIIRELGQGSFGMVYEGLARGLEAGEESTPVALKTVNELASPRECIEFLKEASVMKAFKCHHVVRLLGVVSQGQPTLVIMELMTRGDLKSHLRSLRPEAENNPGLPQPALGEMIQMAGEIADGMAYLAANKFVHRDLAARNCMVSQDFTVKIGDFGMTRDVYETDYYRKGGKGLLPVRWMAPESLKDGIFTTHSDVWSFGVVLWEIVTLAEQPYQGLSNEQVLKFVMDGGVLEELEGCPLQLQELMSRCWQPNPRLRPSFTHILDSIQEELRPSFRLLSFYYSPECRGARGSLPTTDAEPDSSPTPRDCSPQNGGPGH
Effect on: enzyme activity
Action: inhibitor
Concentration: 0.5 µM
Baseline: control
| SMILES | remaining activity [%] |
| --- | --- |
| CC(=O)c1ccc(N2CCOCC2)cc1O | 96.7 |
| Oc1ccc(Nc2nc(-c3ccc(Cl)cc3)cs2)cc1 | 98.8 |
| O=S(=O)(NCCNC/C=C/c1ccc(Br)cc1)c1cccc2cnccc12 | 103 |
| CC(C)(C)n1nc(Cc2cccc3ccccc23)c2c(N)ncnc21 | 107 |
| Cc1cc(Nc2nc(-c3ccccc3)nc3ccccc23)n[nH]1 | 20.7 |
| O=C1Cc2c([nH]c3ccc([N+](=O)[O-])cc23)-c2ccccc2N1 | 94.5 |
| CSc1nc(-c2ccnc(N[C@@H](C)c3ccccc3)c2)c(-c2ccc(F)cc2)[nH]1 (racemic) | 98.9 |
| Nc1nccc(-c2c(-c3ccc(F)cc3)ncn2C2CCNCC2)n1 | 103 |
| CCc1[nH]c(-c2ccc(OC)cc2)nc1-c1ccncc1 | 102 |
| O=C1NC(=O)C(c2c[nH]c3ccccc23)=C1c1c[nH]c2ccccc12 | 90.1 |
| Nc1ncnc2c1cnn2-c1ccccc1 | 106 |
| COc1ccc(S(=O)(=O)N(CCO)c2ccccc2CN(C)CC=Cc2ccc(Cl)cc2)cc1 | 97 |
| Cc1cncc2cccc(S(=O)(=O)N3CCCN(C(=O)CN)C[C@@H]3C)c12 | 103 |

Series 4
SMILES: C[C@H](NC(=O)c1cnc2n1[C@](C)(Cc1ccc(C#N)cc1)C(=O)N2c1cc(Cl)c(F)c(Cl)c1)C(=O)NC1(c2ccccn2)CC1
Effect on: cell-free assay
Technique: competition with immobilised ligand
Concentration: 1 µM
| target | remaining binding [%] |
| --- | --- |
| Ribosomal protein S6 kinase alpha-4, N-terminal kinase domain (RPS6KA4, Homo sapiens, UniProt O75676) | 63 |
| Non-receptor tyrosine-protein kinase TYK2, JH1 (TYK2, Homo sapiens, UniProt P29597) | 100 |
| MAPK11 (Homo sapiens, UniProt Q15759) | 100 |
| STK16 (Homo sapiens, UniProt O75716) | 100 |
| BMPR1B (Homo sapiens, UniProt O00238) | 99 |
| GSK3B (Homo sapiens, UniProt P49841) | 100 |
| FLT3 (Homo sapiens, UniProt P36888, D835V/ITD) | 100 |
| EGFR (Homo sapiens, UniProt P00533, del747-750/T751S) | 100 |
| BMP2K (Homo sapiens, UniProt Q9NSY1) | 100 |
| MYLK4 (Homo sapiens, UniProt Q86YV6) | 100 |
| Receptor-type tyrosine-protein kinase FLT3, autoinhibited (FLT3, Homo sapiens, UniProt P36888) | 100 |

For quick reference, copied from above (series 1):
| SMILES | EC50 |
| --- | --- |
| CN(C)c1cccc(-c2nccc3c(=O)cc(N4CCOCC4)oc23)c1 | ≥ 100 µM |
| N#Cc1ccccc1CN1CCNc2nc(CNCc3ccccc3)n(Cc3ccccc3)c2C1=O | ≥ 100 µM |
| O=C(NCCc1ccc(O)c(O)c1)C12CC3CC(CC(C3)C1)C2 | ≥ 100 µM |
| Cc1cc(-c2cc3ccccc3o2)nc2ccccc12 | ≥ 100 µM |
